Assay results collected from several papers.
Lines come from different studies, so protocols differ.
Route: oral

Structure (SMILES) | system | conditions | Cmax
CNc1nc(Nc2ccc(-n3cnc(C)n3)c(OC)c2)nc2c1CC[C@H]2c1ccc(F)cc1 | human, plasma | 1200 mg, single dose, healthy volunteers | 1600 ng/mL
CS(=O)(=O)n1cc2c(n1)CN([C@H]1CO[C@H](c3cc(F)ccc3F)[C@@H](N)C1)C2 | male human, plasma | 100 mg, single dose, fasted | 2.71 µM
C[C@@H]1CCC[C@H](n2cnc(-c3cc(Cl)ccc3-n3cc(Cl)nn3)cc2=O)c2cc(ccn2)-c2c(cnn2C(F)F)NC1=O | human, plasma | 20 mg, single dose, fasted, healthy volunteers | 126 ng/mL
CNCc1ccc(-c2[nH]c3cc(F)cc4c3c2CCNC4=O)cc1 | human, plasma | 240 mg, multiple doses, twice daily, steady state, patients | 971 ng/mL
O=C(c1nc2n(n1)[C@H](c1ccccc1)C[C@@H]2F)C1CC1 | human, plasma | 75 mg, single dose, fasted, healthy volunteers | 783 ng/mL
Nc1ccc(-c2nc([C@H]3CCc4cc(-c5cc(Cl)ccc5-n5cnnn5)cc(=O)n43)c(F)[nH]2)c(F)n1 | human, plasma | 20 mg, single dose, fasted | 159 ng/mL
CCCOc1ccc([C@H]2CNC(=O)N2c2ccc3[nH]cnc3c2)cc1 | human, plasma | 200 mg, single dose, fasted | 818 ng/mL
Nc1ncc(-c2cnn(CCO)c2)c2scc(-c3ccc(NC(=O)Nc4cccc(F)c4)cc3)c12 | human, plasma | 640 mg, patients | 1550 ng/mL
CCCCCN1C[C@H](O)[C@@H](O)[C@H](O)[C@@H]1CO | male human, plasma | 1000 mg, single dose, fasted, healthy volunteers | 8590 ng/mL
C#C[C@]1(CO)O[C@@H](n2cnc3c(N)nc(F)nc32)C[C@@H]1O | human, plasma | 200 mg, single dose, fasted | 6.18 µM
COc1cccc(-c2ccc(NC(=O)C3=C(C(=O)O)CCC3)c(F)c2)c1 | male human, plasma | 40 mg, single dose, fasted, healthy volunteers | 7860 ng/mL
Cc1c(Cl)c(C)[n+]([O-])c(Cl)c1-c1noc(-c2cc(O)c(O)c([N+](=O)[O-])c2)n1 | male human, plasma | 25 mg, single dose, fasted, healthy volunteers | 804 ng/mL
O=C(CCCCCCC(=O)Nc1ccccc1)NO | human, serum | 800 mg, patients | 3.59 µM
CNC(=O)c1ccc(-c2cnc3ncc(Cc4ccc5ncccc5c4)n3n2)cc1F | human, plasma | 600 mg twice daily, multiple doses, steady state, patients | 4890 ng/mL
